Published values from different studies.
Compare with care: the assays were run in different laboratories. “And” joins repeats or separate records; there may be more than shown. Numbers after ± are the reported error.

CC(C)(C(=O)N1CCOc2c(C#N)cncc2C1)C(F)F — subjects with adverse event (refers to: eye disorders; human; oral, 15 mg twice daily, 14 days, multiple ascending dose): 0%
CC(C)(C)NCC(O)c1ccc(O)c(CO)c1 (stereo not drawn) — fraction unbound (equilibrium dialysis; rat, lung homogenate): 1
O=C(N[C@@H](CSCc1ccc([N+](=O)[O-])cc1)C(=O)NO)c1ccccc1 — serum malondialdehyde (male ICR mice; oral, 200 mg/kg, 28 days, OECD 407 subacute toxicity): no effect
COc1ccnc(C(N)=O)c1O — DT50 (aerobic dark soil incubation; clay loam soil; 20 °C, persistence endpoint): 10.1 days
CCN1CCN(C(=O)c2ccc(-n3nc(-c4cccnc4)c4c3-c3sc(NC(C)=O)nc3CC4)cc2)CC1 — body weight (NSG mice; dose not given, day 3): 15.5 g and 19.2 g and 19.3 g and 18.4 g
CC[C@H](C)[C@H](NC(=O)[C@H](Cc1ccccc1)NC(=O)[C@H](CCC(=O)O)NC(=O)[C@H](CCCCNC(=O)COCCOCCNC(=O)COCCOCCNC(=O)CC[C@H](NC(=O)CCCCCCCCCCCCCCCCC(=O)O)C(=O)O)NC(=O)[C@H](C)NC(=O)[C@H](C)NC(=O)[C@H](CCC(N)=O)NC(=O)CNC(=O)[C@H](CCC(=O)O)NC(=O)[C@H](CC(C)C)NC(=O)[C@H](Cc1ccc(O)cc1)NC(=O)[C@H](CO)NC(=O)[C@H](CO)NC(=O)[C@@H](NC(=O)[C@H](CC(=O)O)NC(=O)[C@H](CO)NC(=O)[C@@H](NC(=O)[C@H](Cc1ccccc1)NC(=O)[C@@H](NC(=O)CNC(=O)[C@H](CCC(=O)O)NC(=O)C(C)(C)NC(=O)[C@@H](N)Cc1cnc[nH]1)[C@@H](C)O)[C@@H](C)O)C(C)C)C(=O)N[C@@H](C)C(=O)N[C@@H](Cc1c[nH]c2ccccc12)C(=O)N[C@@H](CC(C)C)C(=O)N[C@H](C(=O)N[C@@H](CCCNC(=N)N)C(=O)NCC(=O)N[C@@H](CCCNC(=N)N)C(=O)NCC(=O)O)C(C)C — QTcB change from baseline (12-lead Holter ECG; healthy humans; subcutaneous, 1.5 mg once weekly, 26 h, steady state; relative to: placebo): 9.5 ms
C/C(=N\NC(=O)Cn1c(-c2ccc(S(C)(=O)=O)cc2)nc2cc(Cl)ccc21)c1ccc(Cl)cc1 — ulcer number (rat, stomach; concentration not given, 4 h): 0.33
C[C@@H](O)CCOC(=O)C[C@@H](C)O — heart rate (human; oral drink, dose not given, 60 min post dose, mean): 76 beats/min
Cc1cc(Nc2ccc(S(F)(F)(F)(F)F)cc2)n2nc(C(C)(F)F)nc2n1 — adverse event Fatigue (Plasmodium falciparum malaria patients; oral, 400 mg): 0%
Cc1cn([C@H]2C[C@H]([18F])[C@@H](CO)O2)c(=O)[nH]c1=O — nasal clearance amplitude A (PET/CT, bi-exponential fit; Sprague-Dawley rat, nasal cavity; intranasal; relative to: dose): 78.9%
O=C(Nc1nc2cccc(-c3ccc(CN4CCS(=O)(=O)CC4)cc3)n2n1)C1CC1 — treatment-emergent adverse events (refers to: rheumatoid arthritis; rheumatoid arthritis patients; oral, 75 mg once daily, 4 weeks, any relatedness): 0%
CCn1cc(C(=O)N2CCOCC2)c(=O)c2cc(NC3Cc4ccccc4C3)cnc21 — Tmax (human, fasted; oral suspension, 150 mg single dose, median): 2.5 h
O=C(OC(C(F)(F)F)C(F)(F)F)N1CCN(Cc2cccc(Oc3ccccc3)c2)CC1 — Ktrans (PET blocking study; rhesus monkey, brain HIP; 0.01 mg/kg, compound pretreatment, together with: [18F]T-401 tracer): 0.0013 min⁻¹
O=C(/C=C/c1cccc(S(=O)(=O)Nc2ccccc2)c1)NO — Vss (human patients, plasma; 1900 mg/m^2): 24.3 L/m²
Cc1c(-c2ccc(N3CCc4cccc(C(=O)Nc5nc6ccccc6s5)c4C3)nc2C(=O)O)cnn1CC12CC3(C)CC(C)(C1)CC(OCCNCC[C@H](O)CO)(C3)C2 — plasma concentration (anaesthetized male beagle dog; iv infusion, 0.01 mg/kg/min, 30 min): < 2 ng/mL
Cc1nc2ccc(OCc3ccc(C(F)(F)F)cc3)cc2[nH]1 — tissue/plasma ratio (Balb/c mouse, male, lungs; intravenous, 1 mg/kg, 3 h; relative to: tissue over plasma): 2.9 ± 0.6
CCN1CCN(Cc2ccc(NC(=O)c3ccc(C)c(NC(=O)c4cncc(-c5cccs5)c4)c3)cc2C(F)(F)F)CC1 — plasma concentration (LC-MS/MS; C57BL/6 mouse, plasma; intraperitoneal, 20 mg/kg single dose, 24 h): 7 ng/mL and 5 ng/mL
CO[C@H]1C[C@@H]2CC[C@@H](C)[C@@](O)(O2)C(=O)C(=O)N2CCCC[C@H]2C(=O)O[C@H]([C@H](C)C[C@@H]2CC[C@@H](O)[C@H](OC)C2)CC(=O)[C@H](C)/C=C(\C)[C@@H](O)[C@@H](OC)C(=O)[C@H](C)C[C@H](C)/C=C/C=C/C=C/1C — rectal temperature (healthy adult horses; intravenous, 0.06 mg/kg, 12 h): 37.8 ± 0.2 °C
C[C@H]1C=C(Cc2ccccc2)C(=O)O1 — DT50 whole system (Staffordshire loam sediment, aerobic dark; 20 °C): 8.77 days
Cc1cccc(CNC(=O)c2cn(CCNC(=O)c3ccccc3S)c3cc4c(cc3c2=O)OC(F)(F)O4)n1 — bioavailability (Sprague-Dawley rat, male, whole blood; intramuscular, 10 mg/kg of parent drug): 42%
Cc1ccc(N(C)C(=O)/C=C/c2ccco2)cc1 — licking latency (hot plate test; mice; oral, 30 mg/kg daily for 7 days, 0 min, day 8): 14.7 ± 0.3 s
Cn1cncc1-c1c(F)cncc1NC(=O)c1c(N)nn2cc(F)cnc12 — grade ≥1 adverse events (patients, advanced solid tumours; oral, 130 mg once daily; relative to: patients): 71.4%
O=C(COc1ccc(Cl)cc1)NC12CC(c3nnc([C@H]4C[C@@H](OC(F)(F)F)C4)o3)(C1)C2 — adverse event incidence (refers to: Fatigue; human; 28 (unit not given)): 31.6%
CN1CCC[C@H](CN2c3ccccc3Sc3ccccc32)C1.Cl — Cmax (fasted female ICR mouse, skin; oral, 16 mg/kg): 1010 ng/g
N#Cc1ccc2c(c1)[C@H]1CCCN(C(=O)c3ccc4[nH]cnc4c3)[C@H]1C2 — total testosterone level (human males; 160 mg, end of trial): 11.1 nmol/L
CCCCC1=NC2(CCCC2)C(=O)N1Cc1ccc(-c2ccccc2S(=O)(=O)Nc2noc(C)c2C)c(COCC)c1 — Tmax (healthy adult volunteers, plasma; oral, 200 mg, 14 days repeated dosing, fasted, crushed tablet): 2.5 h
COc1cc(Nc2ncc3c(n2)-c2ccc(Cl)cc2C(c2c(F)cccc2OC)=NC3)ccc1C(=O)O — patients with adverse event (refers to: Hyperglycemia, all grades; cancer patients, phase 1/2; oral, dose not given, together with: pembrolizumab): 67%
C[C@@H]1CCO[C@H]2Cn3cc(C(=O)NCc4ccc(F)cc4F)c(=O)c(O)c3C(=O)N12 — trough concentration (C24) (human paediatric patients, weight sample E to under sample F kg, plasma; oral, 50 mg film-coated tablet, 24 h, steady state, geometric mean, population PK post-hoc, N 7): 553 ng/mL
C[C@@H](N)C1CCN(S(=O)(=O)c2cccc3cnccc23)CC1 — participants with nausea (healthy volunteers; 75 mg, fasted): 0%
OB1NN=Cc2ccccc21 — peak area (stability, UPLC-MS; diluted serum; 5 day, 37 °C; higher = more compound remaining): 307000 a.u. and 306000 a.u. and 308000 a.u.
Cc1ccc(C(=O)N(CCCN)C(c2nc3snc(C)c3c(=O)n2Cc2ccccc2)C(C)C)cc1 (stereo not drawn) — patients with adverse event (mucosal inflammation grade ≥3 (CTCAE); human patients; intravenous, 10 mg/day): 0%
Cc1ccc(Sc2ccccc2N2CCNCC2)c(C)c1 — participants with TEAE (refers to: feeling abnormal; healthy adult men; oral, 20 mg daily, 12 days): 0%
C=CCN1CC(=O)N2[C@@H](Cc3ccc(O)cc3F)C(=O)N(Cc3cccc(N4CC(N5CCN(CC)CC5)C4)n3)C[C@@H]2N1C(=O)NCc1ccccc1 — treatment-related ALT increased (advanced solid tumour patients; oral, 30 mg twice daily, grade ≥3, dose-escalation): 0%
O=C1CC[C@H](N2Cc3cc(N4CCN(CC5CCN(c6ccc([C@@H]7c8ccc(O)cc8CC[C@@H]7c7ccccc7)cc6)CC5)CC4)ccc3C2=O)C(=O)N1 — participants with TRAE nausea (human; oral, 200 mg, together with: dabigatran etexilate 75 mg): 0%
Cc1cc(C)c(CNC(=O)c2cc(Cl)c3c(c2C)O[C@@](C)([C@H]2CC[C@H](N(C)C)CC2)O3)c(=O)[nH]1 — half-life unbound drug (human, plasma; oral, 200 mg, cycle 1 day 15): 10.2 h
COc1ccc2c3c([nH]c2c1)[C@H](CC(C)C)N1C(=O)[C@H](CC(=O)NC(C)C)NC(=O)[C@@H]1C3 — liver to body weight ratio (wild-type mouse; oral, 100 mg/kg daily, 23 days): 5.02% and 4.98%
CC(C)C(=O)O[C@H]1[C@H](C)OC(=O)[C@@H]1Cc1ccccc1 — DT50 water (Swiss Lake sand sediment, aerobic dark; 20 °C): 2.02 days
COc1cc(N2CCC(N3CCN(C)CC3)CC2)ccc1Nc1ncc(Cl)c(Nc2ccccc2P(C)(C)=O)n1 — body weight (nude mice, NCI-H3122 xenograft; intraperitoneal, 10 mg/kg every other day, day 9): 23.7 g and 23.1 g and 21.8 g and 24.6 g and 24.7 g
CCc1cc(C(=O)NC)c2nccc(N3CCc4c(cc(Cn5ccnc5)cc4-c4cn(C)nc4C(F)(F)F)C3=O)c2c1 — serum RBC change (Sprague Dawley rats; oral, 100 mg/kg once daily, 7 days; relative to: vehicle): -1.93%
O=C(N[C@H](Cc1c[nH]c2ccccc12)C(=O)Nc1ccncc1)c1ccc(-c2cc(C(F)(F)F)ccc2F)cc1F — concentration (Swiss Webster mouse, female, fat; oral, 50 mg/kg, 2 h, 20% HPβCD vehicle): 170 nM
N[C@@H](C[18F])C(=O)O — tumour-to-muscle ratio (PET imaging; female athymic nude mice, U-87 MG xenograft; intravenous, 30 min; relative to: tumour over muscle): 1.43 ± 0.2
O=C(O)CCCOc1ccc([18F])cc1-c1cc(-c2ccccc2C(F)(F)F)n(-c2ccccc2)n1 — radioactivity uptake (gamma counting; male ddY mice, spleen; intravenous, 2.1 MBq, 30 min): 0.18 ± 0.03 SUV
CNCc1ccc(-c2[nH]c3cc(F)cc4c3c2CCNC4=O)cc1 — headache incidence (human patients; oral, 240 mg twice daily, all grades): 0%
O=C(CCCCCCC(=O)Nc1ccc(CC[18F])cc1)NO — tissue uptake (athymic nu/nu male mice, LNCaP xenograft, kidney; intravenous, 0.5 h): 17.9 ± 8.7 %ID/g
CNc1ccc(-c2nc3ccc(O)cc3s2)cc1 [carbon-11 labelled] — SUV (microPET/CT imaging; B6SJL mouse, normal, heart; intravenous, 20 min): 0.74 ± 0.228
CNC(=O)c1ccc(-c2cnc3ncc(Cc4ccc5ncccc5c4)n3n2)cc1F — AUC(0-t) (human moderate hepatic impairment NCI; oral, 200 mg single dose, geometric mean): 7260 ng·h/mL
Cc1cc(NC2CCN(C(=O)OC3CCN(C(=O)/C=C/CN(C)C)C3)CC2)n2ncc(C(C)C)c2n1 (stereo not drawn) — patients with adverse events (patients with advanced solid tumours; dose not given, QD arm, grade 3 or higher): 44%
CCOc1c([C@H](C)n2nc(C)c3c(N)ncnc32)cc(Cl)c(F)c1[C@@H]1CNC(=O)C1 — share of patients (refers to: ΔQTcF > 60 ms; previously treated B-cell malignancy; oral, dose not given, baseline QTcF ≤450 ms, all doses): 1.5%
Cn1ncnc1[C@H]1c2n[nH]c(=O)c3cc(F)cc(c23)N[C@@H]1c1ccc(F)cc1 — CL/F at steady state (human patients, plasma; oral, 600 µg/m2 twice daily day 1, day 5, dose level DL5, median, together with: temozolomide 40 mg/m2 daily days 2-6): 3 L/h/m2
NC1(C(=O)N[C@@H](CCO)c2ccc(Cl)cc2)CCN(c2nc[nH]c3nccc2-3)CC1 — incidence of white blood cell decreased (metastatic CRPC patients; 480 mg b.i.d., grade 3 to 4, treatment-related, together with: enzalutamide 160 mg daily): 0%
C[C@@H](Nc1cc(F)cc(F)c1)c1cc(C(=O)N(C)C)cc2c(=O)cc(N3CCOCC3)oc12 — related serious adverse events (refers to: Hypokalemia; advanced solid tumour patients; oral, dose not given, dose finding): 1.6%
CCc1c(-c2ccccc2)c(-c2ccccc2)nn1-c1ccccc1-c1cccc(OCC(=O)O)c1 — concentration (Sprague-Dawley rat, heart; oral, 10 mg/kg, 4 h): 3990 ng/g and 2060 ng/g
Cc1ccc([C@@H]2O[C@H](CO)[C@@H](O)[C@H](O)[C@H]2O)cc1Cc1ccc(-c2ccc(F)cc2)s1 — urinary magnesium excretion change (Japanese type 2 diabetes patients; 400 mg, day 17, 24 h urine collection; relative to: baseline): 25.7 mg
O=C(Nc1c2c(cc3c1CCC3)CCC2)NS(=O)(=O)/C=C/c1nccs1 — metabolized fraction (dog liver microsomes; 1 µM, 30 min, together with: NADPH): 2.62%

A few entries again:
C[C@H]1C=C(Cc2ccccc2)C(=O)O1 — DT50 whole system (Staffordshire loam sediment, aerobic dark; 20 °C): 8.77 days
CCc1c(-c2ccccc2)c(-c2ccccc2)nn1-c1ccccc1-c1cccc(OCC(=O)O)c1 — concentration (Sprague-Dawley rat, heart; oral, 10 mg/kg, 4 h): 3990 ng/g and 2060 ng/g
CNc1ccc(-c2nc3ccc(O)cc3s2)cc1 [carbon-11 labelled] — SUV (microPET/CT imaging; B6SJL mouse, normal, heart; intravenous, 20 min): 0.74 ± 0.228
CC(C)(C(=O)N1CCOc2c(C#N)cncc2C1)C(F)F — subjects with adverse event (refers to: eye disorders; human; oral, 15 mg twice daily, 14 days, multiple ascending dose): 0%
